Measured values collected from several papers.
Numbered parts are unrelated; each lists some results of a single study. Substitutions count along the parent as printed.

Block 1
Target: Max-binding protein MNT, bHLH-zipper, MAX partner unstated (MNT, Homo sapiens, UniProt Q99583, residues 220-300)
Technique: protein-binding microarray
Molecule type: double-stranded DNA, one strand shown
Sample: in vitro
Tested at: not given
Notes: k-mer, scored over probes, only values ≥0.25
Direction: higher = stronger binding
Target sequence (chain): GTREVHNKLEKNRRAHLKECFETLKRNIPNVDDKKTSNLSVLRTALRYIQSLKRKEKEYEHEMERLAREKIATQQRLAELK
Strand | E-score
ACATGCTA | 0.367
CGGGGCAC | 0.321
CATGCTGG | 0.412
CCATGCAG | 0.363
CCACACGA | 0.264
CATGTGCC | 0.464
CACGAGGC | 0.451
ACATGGTC | 0.412

Block 2
Target: CCNA2, cyclin fold, Cln2 fusion (human)
Technique: yeast growth competition, sequencing
Sample: yeast
Notes: strong parent motif
Relative to: not given
Direction: higher = stronger binding
Starting sequence: viral docking peptide; TSVRRALFTGGSD; partner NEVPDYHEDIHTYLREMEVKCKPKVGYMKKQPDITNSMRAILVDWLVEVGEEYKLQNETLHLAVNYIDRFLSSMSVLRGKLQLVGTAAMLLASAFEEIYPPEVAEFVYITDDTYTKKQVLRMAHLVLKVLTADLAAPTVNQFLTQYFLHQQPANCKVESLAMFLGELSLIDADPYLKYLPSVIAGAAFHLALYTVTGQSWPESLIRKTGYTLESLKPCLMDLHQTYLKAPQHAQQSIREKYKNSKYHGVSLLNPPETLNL
Substitution | normalised enrichment score
S12C | 6.05
G10C | 6.28
L7G | 0.42
S2E | 5.31
R5Q | 1.67
S12L | 5.87
R4L | 1.18
G10R | 6.12
R4G | 0.378
L7D | -0.0231
G11S | 6.29
A6P | 3.46
G10T | 6.16
F8T | 0.0408
V3F | 4.93
S12Q | 6.48
S12E | 6.02
G11Y | 5.87

Block 3
Target: POU domain, class 5, transcription factor 1, POU domain (Pou5f1, Mus musculus, UniProt P20263, residues 131-289)
UniProt P20263, sequence (131-289, looked up): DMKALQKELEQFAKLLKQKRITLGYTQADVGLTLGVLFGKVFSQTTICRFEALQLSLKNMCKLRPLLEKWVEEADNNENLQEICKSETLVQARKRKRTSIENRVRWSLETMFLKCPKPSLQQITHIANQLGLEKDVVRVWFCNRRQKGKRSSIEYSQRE
Technique: Spec-seq
Molecule type: double-stranded DNA, one strand shown
Sample: in vitro
Tested at: not given
Notes: whole probe, mean of replicates
Relative to: not given
Direction: lower = stronger binding
Shared flanks, not repeated: GAGTCGTCTCGTCAGCAC … TCCGTAGAGCACTCAGGTC
Strand | relative binding energy [ln ratio]
ATATCGA | 0.488
ATGGCGA | 0.797
TCAATAA | -0.166
GTCATAA | 0.441
ATGCTCT | 0.685
ACGATAA | 0.544
TTACTAA | 0.197
ATCATAA | 0.0214

Single results of other studies
Technique: cross-linking MS
Molecule | partner | sample | notes | with | endpoint | result
ATP5PF (Homo sapiens, UniProt P18859) | ATP5PB (Homo sapiens, UniProt P24539) | – | hits only | – | interaction screen | cross-linked
WDR36 (Homo sapiens, UniProt Q8NI36) | NOP58 (Homo sapiens, UniProt Q9Y2X3) | cell fractions | – | DSSO | cross-linked residues | K182 to K441
PDIA4 (Homo sapiens, UniProt P13667) | PDIA3 (Homo sapiens, UniProt P30101) | cell fractions | – | DSSO | cross-linked residues | K366 to K218
STMN1 (Homo sapiens, UniProt P16949) | TUBA1C (Homo sapiens, UniProt Q9BQE3) | – | hits only | – | interaction screen | cross-linked

A few entries again (block 2):
Substitution | normalised enrichment score
S12Q | 6.48
G11S | 6.29
G10R | 6.12
G10T | 6.16
S12L | 5.87
